Experimental data pooled from the literature.
A part holds a random share of what one study measured. Positions count from the first letter of the parent shown.

Sample 1
Target: Sal-like protein 4, full length isoform A (SALL4, Homo sapiens, UniProt Q9UJQ4, residues 1-1053)
Chain of UniProt Q9UJQ4 (whole entry, looked up): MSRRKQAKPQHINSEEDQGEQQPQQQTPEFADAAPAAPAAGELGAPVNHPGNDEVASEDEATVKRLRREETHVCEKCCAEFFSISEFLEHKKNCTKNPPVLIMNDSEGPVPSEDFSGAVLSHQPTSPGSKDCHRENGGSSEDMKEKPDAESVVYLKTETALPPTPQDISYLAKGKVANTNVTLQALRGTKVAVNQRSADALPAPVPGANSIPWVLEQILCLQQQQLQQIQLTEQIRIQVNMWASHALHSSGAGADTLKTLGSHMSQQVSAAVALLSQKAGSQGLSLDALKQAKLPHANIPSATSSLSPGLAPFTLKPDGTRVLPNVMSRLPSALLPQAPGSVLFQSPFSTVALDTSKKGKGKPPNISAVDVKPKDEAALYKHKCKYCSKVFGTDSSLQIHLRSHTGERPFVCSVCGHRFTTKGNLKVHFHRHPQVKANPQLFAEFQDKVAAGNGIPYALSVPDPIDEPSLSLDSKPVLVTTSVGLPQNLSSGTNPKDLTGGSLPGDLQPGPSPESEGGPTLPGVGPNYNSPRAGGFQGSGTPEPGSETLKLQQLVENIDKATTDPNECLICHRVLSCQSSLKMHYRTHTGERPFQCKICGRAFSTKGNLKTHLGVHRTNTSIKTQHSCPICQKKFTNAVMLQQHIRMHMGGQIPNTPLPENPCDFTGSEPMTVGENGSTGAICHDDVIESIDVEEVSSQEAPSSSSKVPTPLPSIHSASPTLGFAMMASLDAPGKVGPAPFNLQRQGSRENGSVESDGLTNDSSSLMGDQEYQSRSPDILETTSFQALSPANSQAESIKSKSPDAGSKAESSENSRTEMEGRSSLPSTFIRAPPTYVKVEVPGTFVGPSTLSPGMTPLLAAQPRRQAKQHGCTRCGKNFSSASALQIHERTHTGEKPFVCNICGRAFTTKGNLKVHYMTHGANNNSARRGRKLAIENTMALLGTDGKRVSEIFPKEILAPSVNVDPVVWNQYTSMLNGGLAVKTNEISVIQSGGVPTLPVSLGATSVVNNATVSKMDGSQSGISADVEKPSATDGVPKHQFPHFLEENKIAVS
Technique: universal PBM
Form: double-stranded DNA, one strand shown
Matrix: in vitro
Tested at: 600 nM
Setting: 8-mer, flanks averaged, mean of replicates
Direction: higher = stronger binding
Measurement: E-score
Strand = GTCTTGTA; result = 0.0865
Strand = CGTAGTAG; result = -0.0299
Strand = CGACCGCG; result = -0.352
Strand = ATAATTAG; result = 0.384
Strand = CATGCAGG; result = -0.214
Strand = ATACTAAC; result = 0.136

Sample 2
Target: CCND3, cyclin fold, Cln2 fusion (human)
Technique: yeast growth competition, sequencing
Matrix: yeast
Setting: weak parent motif
Relative to: not given
Direction: higher = stronger binding
Measurement: normalised enrichment score
Starting sequence: E2F1 docking peptide (human); PPVKRRLDFETDH
Variant = PPVKRRLDFRTDH [E10R]; result = 0.0399
Variant = PPVLRRLDFETDH [K4L]; result = -0.267
Variant = PPVKRRLDIETDH [F9I]; result = 0.296
Variant = PPVKRRMDFETDH [L7M]; result = 0.43
Variant = PPVKRRHDFETDH [L7H]; result = 0.0525
Variant = PPVKRRLNFETDH [D8N]; result = 0.396

Sample 3
Target: RNA binding protein fox-1 homolog 2, RRM domain, GST-SBP tag (RBFOX2, Homo sapiens, UniProt O43251-10, residues 100-194)
Technique: RNA Bind-n-Seq
Form: RNA
Matrix: in vitro
Tested at: 365 nM
Setting: natural RNA segment, single round, ends assumed
Relative to: no-protein control
Direction: higher = stronger binding
Measurement: RBNS enrichment (R)
All sequences stand within: GGGAGUUCUACAGUCCGACGAUC … UGGAAUUCUCGGGUGCCAA
Target sequence (chain): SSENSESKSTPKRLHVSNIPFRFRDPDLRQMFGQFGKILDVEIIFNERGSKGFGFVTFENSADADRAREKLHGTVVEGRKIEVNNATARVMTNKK
Strand = AUUGUAUUUGAAUUUGUGCCUCUUUGUUUUUCCCCAAACCAAAGCCCUCAAAUUGUAGUCUCUGUCGGCUUCUGCAGAAUUCUGGAAAAUGCCAGUUUUCCUCCCCCGCC; result = 0.472
Strand = CACAAUGUUCAAAUGGCGGCUGACUCUACAGCAUUCUGUAGGUCCCUGCCCCCCUAGCUGAAGGGGUGUGCCAUACUACCUUAAAUGCAAACACUAGAUAUGCAAAACUG; result = 0.299
Strand = CAUUUAAAACCCAGCUGUUUAGCAAGGAGUGUUGGCUCACACCUACAAUCCCAGCAUUUGGGAAGCUGAGGCAAGCAGAUUACCACAAGUUUGAAACCAACCUUGGCUGC; result = 0.301
Strand = AGGAUGGCUCCUCCGGUGUCGUGUUCUCUACCUAUAGAGCCAGCUCUGAAUGGAUGUGUUACCAGAAGCAUUUUAGCUACAGCCUAGAAAAUGACAUUGUGAACACAGUA; result = 0.362
Strand = UGAUUAAAGAUGUCUCAUGUACUUGGAAAAGUGAGCAUUUUUUUUUUUUUUGUAUUUCACUUUCAUACCAGGCUUAAUGUCAAUGACAUUUUUAUUUUUGAAGUACUCUG; result = 0.796

Mixed results
Substance = PhoQ, residues 284 288 289 292 302 303 AAQSYM; target = PhoP, residues 12 14 15 18 19 AQALL (Escherichia coli, UniProt P23836); assay = Sort-seq, refers to: YFP reporter; test system = E. coli; setting = PhoQ-PhoP variant library, with: 10 µM Mg2+; scale = relative to: high Mg2+ state, higher = stronger signaling; measurement = fold induction; result = 3.14

A few entries again (sample 2):
Variant = PPVKRRLDIETDH [F9I]; result = 0.296
Variant = PPVKRRMDFETDH [L7M]; result = 0.43
